Results from different studies.
Every numbered part comes from another study and shows a few of its results, in no order. Substitutions count along the parent as printed.

Sample 1 — target: CCND2, cyclin fold, Cln2 fusion (human); method: yeast growth competition, sequencing; sample: yeast; setting: weak parent motif; reference: not given; reading: higher = stronger binding
Starting sequence: CDC25A docking peptide (human); PPHRRRLLFACSP; partner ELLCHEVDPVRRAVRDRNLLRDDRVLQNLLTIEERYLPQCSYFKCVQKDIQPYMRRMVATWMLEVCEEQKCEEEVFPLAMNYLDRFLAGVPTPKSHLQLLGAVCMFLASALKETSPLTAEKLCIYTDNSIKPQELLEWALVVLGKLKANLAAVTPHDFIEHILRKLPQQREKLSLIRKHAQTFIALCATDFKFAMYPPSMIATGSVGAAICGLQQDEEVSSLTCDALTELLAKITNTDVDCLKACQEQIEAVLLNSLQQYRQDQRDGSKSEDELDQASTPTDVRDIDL
| Variant | normalised enrichment score |
| --- | --- |
| L7P | -0.0567 |
| C11L | -0.118 |
| F9T | 0.435 |
| L7I | 0.377 |
| P1L | 0.0386 |
| R4P | -0.0571 |
| P1M | 0.275 |
| R5K | 0.301 |

Sample 2 — method: protein binding microarray; molecule type: double-stranded DNA, one strand shown; sample: in vitro; tested at: not given; reference: not given; reading: higher = stronger binding
Target: Histone acetyltransferase KAT6A, winged helix 1, GST fusion (KAT6A, Homo sapiens, UniProt Q92794, residues 1-85)
Setting: 8-mer, flanks averaged, mean of 2 arrays, mostly near background
Residues (chain): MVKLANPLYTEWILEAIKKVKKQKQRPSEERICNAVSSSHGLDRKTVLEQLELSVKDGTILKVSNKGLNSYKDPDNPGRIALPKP
| Oligonucleotide | E-score |
| --- | --- |
| GGAAGAAA | -0.144 |
| CGCATTAC | 0.299 |
| GGCTTCCA | 0.134 |
| AGGGGGCA | -0.0673 |
| GCTCCAGA | -0.144 |
| CAAAAGTC | -0.0999 |
| ACCGGTCA | 0.133 |
| CTTTGAAA | -0.132 |

Sample 3 — method: universal PBM; molecule type: double-stranded DNA, one strand shown; sample: in vitro; tested at: not given; reading: higher = stronger binding
Target: Sal-like protein 4, full length isoform B (SALL4, Homo sapiens, UniProt Q9UJQ4-2, residues 1-616)
Setting: 8-mer, flanks averaged, mean of replicates
Target sequence (chain): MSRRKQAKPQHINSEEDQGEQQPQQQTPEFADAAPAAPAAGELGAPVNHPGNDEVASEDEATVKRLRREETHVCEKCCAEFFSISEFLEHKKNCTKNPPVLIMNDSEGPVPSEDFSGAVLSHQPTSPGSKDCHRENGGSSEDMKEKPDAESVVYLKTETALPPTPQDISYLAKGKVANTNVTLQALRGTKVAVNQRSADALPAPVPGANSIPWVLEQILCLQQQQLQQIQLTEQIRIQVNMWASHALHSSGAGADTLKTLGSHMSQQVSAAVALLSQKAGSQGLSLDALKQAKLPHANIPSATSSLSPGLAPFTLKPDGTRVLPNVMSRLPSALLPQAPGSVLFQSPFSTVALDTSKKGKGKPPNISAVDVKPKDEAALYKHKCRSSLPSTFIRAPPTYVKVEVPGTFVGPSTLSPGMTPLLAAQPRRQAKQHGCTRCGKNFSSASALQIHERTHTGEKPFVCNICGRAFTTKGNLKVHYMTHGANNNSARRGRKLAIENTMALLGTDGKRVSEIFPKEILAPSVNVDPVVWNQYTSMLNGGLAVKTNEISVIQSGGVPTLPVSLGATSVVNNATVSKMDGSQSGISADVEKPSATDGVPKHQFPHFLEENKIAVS
| Oligonucleotide | E-score |
| --- | --- |
| ACCTGGCT | -0.217 |
| GATTTTCA | 0.283 |
| CGGGGTAA | -0.0123 |
| TAATGTGA | 0.28 |
| AGACCCCT | -0.235 |
| AAACCCTA | 0.0331 |
| AAGCAGCA | -0.0818 |
| AACATCGA | 0.0778 |

Other studies, line by line
| Molecule | target | assay | test system | conditions | quantity | result |
| --- | --- | --- | --- | --- | --- | --- |
| FQWWRSHPL | HLA class I histocompatibility antigen, C alpha chain, allele C*04:01 (Homo sapiens, UniProt P10321) | peptide-MHC binding | peptide | concentration not given | binding | inactive |

For quick reference, copied from above (sample 2):
| Oligonucleotide | E-score |
| --- | --- |
| GGCTTCCA | 0.134 |
| CTTTGAAA | -0.132 |
| GGAAGAAA | -0.144 |
| ACCGGTCA | 0.133 |
